Measurements collected from several papers.
Each line is one published result; not all experiments were run side by side. Several values in a cell are separate wells, animals, samples, runs or records.
Cell line: RXF 393

SMILES | test | system | conditions | how to read | measurement | result
Cc1cc(=O)[nH]n1-c1nc(-c2ccc(Cl)cc2)c2c(NC(=O)c3ccccc3)nnc-2[nH]1 | SRB | – | 10 µM, NCI60 single-dose screen | relative to: untreated | cell growth | 99.8%
C#C[C@@]1(O)[C@@H](CO)O[C@@H](n2ccc3c(N)ncnc32)[C@@H]1O | SRB | – | NCI-60 screen | – | TGI | 4.6 µM
NNc1nc(-c2ccc(Cl)cc2)c2c(NC(=O)c3ccccc3)nnc-2[nH]1 | SRB | – | 10 µM, NCI60 single-dose screen | relative to: untreated | cell growth | 99.7%
CCOc1ccc(-c2nc3cc(-c4nc5cc(N6CCN(C)CC6)ccc5[nH]4)ccc3[nH]2)cc1OCC | SRB | – | 10 µM, 48 h | – | growth percent | -37.8%
O=C1NC(=NCc2cccs2)S/C1=C\c1ccc2ncccc2c1 | MTS | – | NCI60 panel | – | IC50 | > 10 µM
CCCN1CCN(c2ccc3[nH]c(-c4ccc5[nH]c(-c6cc(OC)c(OC)c(OC)c6)nc5c4)nc3c2)CC1 | SRB | – | 10 µM, 48 h | – | growth percent | 15.6%
CCN(CC)c1ccc(C=NNC(=O)CSc2nc3ccccc3c(=O)n2Cc2ccc(S(N)(=O)=O)cc2)c(O)c1 | NCI five-dose screen | – | – | – | TGI | > 100 µM
CCCN1CCN(c2ccc3[nH]c(-c4ccc5[nH]c(-c6ccc(C(F)(F)F)cc6)nc5c4)nc3c2)CC1 | SRB | – | 10 µM, 48 h | – | growth percent | -70.4%
O=C1NCCc2[nH]c(-c3ccncc3)cc21 | MTS | – | NCI60 panel | – | IC50 | 3.47 µM
O=C(Nc1nnc2n3c(=S)[nH][nH]c3nc(-c3ccc(Cl)cc3)c1-2)c1ccccc1 | SRB | – | 10 µM, NCI60 single-dose screen | relative to: untreated | cell growth | 87.6%
C#C[C@@]1(O)[C@@H](CO)O[C@@H](n2cc(I)c3c(N)ncnc32)[C@@H]1O | SRB | – | NCI-60 screen | – | TGI | 2.01 µM and 2.54 µM
Cc1cc(-c2ccccc2)n(-c2nc(-c3ccc(Cl)cc3)c3c(NC(=O)c4ccccc4)nnc-3[nH]2)n1 | SRB | – | 10 µM, NCI60 single-dose screen | relative to: untreated | cell growth | 84.1%
CN1CCN(c2ccc3[nH]c(-c4ccc5[nH]c(-c6ccc(C(F)(F)F)cc6)nc5c4)nc3c2)CC1 | SRB | – | 10 µM, 48 h | – | growth percent | -14.3%
CC(=O)O[C@H]1C(=O)[C@@]2(C)[C@H]([C@H](OC(=O)c3ccccc3)[C@]3(O)C[C@H](OC(=O)[C@H](O)[C@@H](NC(=O)c4ccccc4)c4ccccc4)C(C)=C1C3(C)C)[C@]1(OC(C)=O)CO[C@@H]1C[C@@H]2O | sulforhodamine B | Renal cancer | NCI60 screen | – | TGI | 0.5 µM
